{"data": "Assay results collected from several papers", "note": "Numbered parts are unrelated; each lists some results of a single study. Positions count from the first letter of the parent shown."}
{"data": "Block 1", "target": "ABI1, truncated, D143A, DHFR fusion (Arabidopsis thaliana)", "method": "DHFR PCA, deep sequencing", "medium": "yeast", "notes": "methotrexate growth selection, single substitutions", "together with": "(+)-ABA 4.8 µM", "relative to": "wild-type fitted maximum", "direction": "higher = stronger binding", "parent": "PYL1, truncated, DHFR fusion (Arabidopsis thaliana); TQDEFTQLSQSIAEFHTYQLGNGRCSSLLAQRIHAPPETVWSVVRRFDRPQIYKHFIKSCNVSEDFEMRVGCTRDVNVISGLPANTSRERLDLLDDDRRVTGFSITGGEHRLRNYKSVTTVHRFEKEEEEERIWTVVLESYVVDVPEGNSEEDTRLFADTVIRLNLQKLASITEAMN"}
{"Change": "V70W", "relative binding score [%]": 6.94}
{"Change": "L156S", "relative binding score [%]": 65.8}
{"Change": "T173M", "relative binding score [%]": 25.9}
{"Change": "K58W", "relative binding score [%]": 5.85}
{"Change": "L112R", "relative binding score [%]": -6.95}
{"Change": "T73C", "relative binding score [%]": 68.3}
{"Change": "E174A", "relative binding score [%]": 23.9}
{"Change": "H110E", "relative binding score [%]": 10}
{"Change": "L20I", "relative binding score [%]": 72}
{"Change": "R163F", "relative binding score [%]": 5.06}
{"Change": "A84N", "relative binding score [%]": 7.93}
{"Change": "V121K", "relative binding score [%]": -13.3}
{"Change": "E67I", "relative binding score [%]": 68.5}
{"Change": "K168C", "relative binding score [%]": 65.2}
{"Change": "Y18P", "relative binding score [%]": 64.1}
{"Change": "N149Y", "relative binding score [%]": 5.41}
{"Change": "D3I", "relative binding score [%]": 60.5}
{"Change": "F15E", "relative binding score [%]": -16.8}
{"Change": "L20Y", "relative binding score [%]": 64.3}
{"data": "Block 2", "target": "Sal-like protein 4, full length isoform A (SALL4, Homo sapiens, UniProt Q9UJQ4, residues 1-1053)", "method": "universal PBM", "molecule type": "double-stranded DNA, one strand shown", "medium": "in vitro", "concentration": "600 nM", "notes": "8-mer, flanks averaged, mean of replicates", "direction": "higher = stronger binding", "sequence of UniProt Q9UJQ4 (whole entry, looked up)": "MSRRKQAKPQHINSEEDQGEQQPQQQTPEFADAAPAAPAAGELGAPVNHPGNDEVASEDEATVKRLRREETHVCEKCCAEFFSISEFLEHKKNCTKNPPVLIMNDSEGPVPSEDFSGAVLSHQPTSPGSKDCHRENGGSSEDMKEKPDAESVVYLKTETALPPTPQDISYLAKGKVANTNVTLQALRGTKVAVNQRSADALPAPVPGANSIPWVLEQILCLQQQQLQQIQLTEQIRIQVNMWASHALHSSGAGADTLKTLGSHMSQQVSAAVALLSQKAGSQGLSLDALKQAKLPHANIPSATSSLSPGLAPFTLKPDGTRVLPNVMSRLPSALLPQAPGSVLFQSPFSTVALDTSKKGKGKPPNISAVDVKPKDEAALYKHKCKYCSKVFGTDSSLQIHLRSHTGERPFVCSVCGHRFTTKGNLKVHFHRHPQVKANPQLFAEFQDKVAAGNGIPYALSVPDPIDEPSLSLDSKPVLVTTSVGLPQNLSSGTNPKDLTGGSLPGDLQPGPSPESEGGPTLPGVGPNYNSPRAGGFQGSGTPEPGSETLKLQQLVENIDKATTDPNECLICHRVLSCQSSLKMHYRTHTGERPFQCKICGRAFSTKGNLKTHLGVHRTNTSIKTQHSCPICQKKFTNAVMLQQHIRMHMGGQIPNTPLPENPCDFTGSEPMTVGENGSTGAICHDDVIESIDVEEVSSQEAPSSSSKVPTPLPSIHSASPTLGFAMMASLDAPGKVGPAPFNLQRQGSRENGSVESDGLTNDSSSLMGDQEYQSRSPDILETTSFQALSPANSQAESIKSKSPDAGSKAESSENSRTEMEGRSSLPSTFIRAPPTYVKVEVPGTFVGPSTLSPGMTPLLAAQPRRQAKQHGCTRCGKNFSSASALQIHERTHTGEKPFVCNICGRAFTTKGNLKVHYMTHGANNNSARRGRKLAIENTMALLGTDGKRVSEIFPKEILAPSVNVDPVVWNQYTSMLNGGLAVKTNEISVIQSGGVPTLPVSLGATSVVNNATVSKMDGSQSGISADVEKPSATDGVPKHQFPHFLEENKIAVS"}
{"Oligonucleotide": "CAACCGTC", "E-score": -0.342}
{"Oligonucleotide": "CCAGTTAC", "E-score": -0.181}
{"Oligonucleotide": "GAAAGCAC", "E-score": -0.0737}
{"Oligonucleotide": "CACCCAGG", "E-score": -0.331}
{"Oligonucleotide": "TGTCGGAA", "E-score": -0.0415}
{"Oligonucleotide": "AGGCCCAG", "E-score": -0.254}
{"Oligonucleotide": "AATTGCCC", "E-score": 0.0923}
{"Oligonucleotide": "CCCACCGC", "E-score": -0.266}
{"Oligonucleotide": "ACCATGTC", "E-score": 0.0619}
{"Oligonucleotide": "CGCCTTAA", "E-score": -0.119}
{"Oligonucleotide": "CACATGCG", "E-score": -0.194}
{"Oligonucleotide": "CAAGCGTC", "E-score": -0.259}
{"Oligonucleotide": "AACAAGCT", "E-score": 0.0107}
{"Oligonucleotide": "GAAACGAC", "E-score": -0.103}
{"Oligonucleotide": "AAGAGCTT", "E-score": -0.0784}
{"Oligonucleotide": "ACAGAGTG", "E-score": 0.0409}
{"data": "Block 3", "target": "HLF, bZIP domain (human)", "method": "DHFR protein complementation", "medium": "yeast", "notes": "single substitutions, most at no-binding floor", "relative to": "wild-type JUN-FOS pair", "direction": "higher = stronger binding", "parent": "JUN, bZIP domain (human); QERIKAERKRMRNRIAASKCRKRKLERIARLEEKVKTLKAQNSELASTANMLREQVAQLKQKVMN; partner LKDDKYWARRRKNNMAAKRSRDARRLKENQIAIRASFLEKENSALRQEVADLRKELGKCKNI"}
{"Change": "L52T", "binding fitness": "-1.41 natural log"}
{"Change": "T48W", "binding fitness": "-1.47 natural log"}
{"Change": "L38P", "binding fitness": "-1.56 natural log"}
{"Change": "K36A", "binding fitness": "-1.4 natural log"}
{"Change": "T48E", "binding fitness": "-1.33 natural log"}
{"Change": "S47M", "binding fitness": "-1.31 natural log"}
{"Change": "L52P", "binding fitness": "-1.52 natural log"}
{"Change": "E54V", "binding fitness": "-1.53 natural log"}
{"Change": "S43G", "binding fitness": "-1.42 natural log"}
{"Change": "T48F", "binding fitness": "-1.54 natural log"}
{"Change": "A57T", "binding fitness": "-1.52 natural log"}
{"Change": "S43A", "binding fitness": "-1.34 natural log"}
{"Change": "S43I", "binding fitness": "-1.27 natural log"}
{"Change": "A29K", "binding fitness": "-1.47 natural log"}
{"Change": "A57G", "binding fitness": "-1.45 natural log"}
{"Change": "K39C", "binding fitness": "-1.3 natural log"}
{"Change": "M51V", "binding fitness": "-1.41 natural log"}
{"Change": "I28H", "binding fitness": "-1.44 natural log"}
{"Change": "S47P", "binding fitness": "-1.52 natural log"}
{"Change": "K34C", "binding fitness": "-1.53 natural log"}
{"Change": "E33G", "binding fitness": "-1.48 natural log"}
{"data": "Block 4", "target": "Interferon regulatory factor 5, full length, phosphomimetic (IRF5, Homo sapiens, UniProt Q13568-2, residues 1-514, S451D/S453D/S456D/S462D)", "method": "protein-binding microarray", "molecule type": "double-stranded DNA, one strand shown", "medium": "in vitro", "concentration": "940 nM top", "notes": "60-bp whole probe", "together with": "salmon DNA 0.4 mg/ml", "relative to": "random background probes", "direction": "higher = stronger binding", "all sequences stand within": "GCCTAGCAC … GTCTTGATTCGCTTGACGCTGCTG"}
{"Oligonucleotide": "TGGTATTTTTTTGTAATCGAGTGCTAG", "fitted relative affinity": "1.15 z-score"}
{"Oligonucleotide": "TTAGGTCTCCTTAACCTTTAGTGCTAG", "fitted relative affinity": "0.081 z-score"}
{"Oligonucleotide": "TTAGGTCTCCTTATCCTCTAGTGCTAG", "fitted relative affinity": "0.291 z-score"}
{"Oligonucleotide": "TCATTTTGGTCTTTCTGACTGTGCTAG", "fitted relative affinity": "0.525 z-score"}
{"Oligonucleotide": "AATTTTTTTTCTAACTAAAAGTGCTAG", "fitted relative affinity": "0.226 z-score"}
{"Oligonucleotide": "GACGATCTCAGACTGGAGAAGTGCTAG", "fitted relative affinity": "-0.371 z-score"}
{"Oligonucleotide": "TTAGAACTGGGGTATCAATTAGTGCTA", "fitted relative affinity": "0.685 z-score"}
{"Oligonucleotide": "TTCGGTTTCGACTTTCGGTTAGTGCTA", "fitted relative affinity": "9.17 z-score"}
{"Oligonucleotide": "AGCCTGGCCAAGCTCACAGCGTGCTAG", "fitted relative affinity": "-0.904 z-score"}
{"Oligonucleotide": "GGTTGTTTCTAATATTCTGCTGTGCTA", "fitted relative affinity": "1.15 z-score"}
{"Oligonucleotide": "TTAGGTATCCTTCTCCTTGAGTGCTAG", "fitted relative affinity": "0.741 z-score"}
{"Oligonucleotide": "TTAGATTCCAGTTTCGATAAGTGCTAG", "fitted relative affinity": "7.57 z-score"}
{"Oligonucleotide": "GACGAATTACCTCTGGAGCAGTGCTAG", "fitted relative affinity": "-0.918 z-score"}
{"Oligonucleotide": "GACGGTCTCCTTTTCCCGACGTGCTAG", "fitted relative affinity": "1.74 z-score"}
{"Oligonucleotide": "GACGGACTGGGGTATCGGGACGTGCTA", "fitted relative affinity": "0.409 z-score"}
{"Oligonucleotide": "TTAGGTTTCGTGTTTCGGTTAGTGCTA", "fitted relative affinity": "7.27 z-score"}
{"Oligonucleotide": "CCCAGTCTCATATTTATTAGGTGCTAG", "fitted relative affinity": "2.84 z-score"}
{"data": "Block 5", "target": "CCND3, cyclin fold, Cln2 fusion (human)", "method": "yeast growth competition, sequencing", "medium": "yeast", "notes": "weak parent motif", "relative to": "not given", "direction": "higher = stronger binding", "parent": "E2F1 docking peptide (human); PPVKRRLDFETDH; partner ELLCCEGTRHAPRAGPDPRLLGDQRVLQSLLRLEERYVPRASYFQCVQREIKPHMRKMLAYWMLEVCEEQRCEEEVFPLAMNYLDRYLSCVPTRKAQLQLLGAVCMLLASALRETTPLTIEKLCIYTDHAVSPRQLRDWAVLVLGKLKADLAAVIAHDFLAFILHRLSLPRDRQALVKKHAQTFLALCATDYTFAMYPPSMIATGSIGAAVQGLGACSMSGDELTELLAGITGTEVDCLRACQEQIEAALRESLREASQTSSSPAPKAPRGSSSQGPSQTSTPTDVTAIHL"}
{"Change": "PVVKRRLDFETDH [P2V]", "normalised enrichment score": 0.392}
{"Change": "PPVKRRLCFETDH [D8C]", "normalised enrichment score": 0.58}
{"Change": "PPVKRRLDFENDH [T11N]", "normalised enrichment score": 0.879}
{"Change": "PPVKRRLDFETCH [D12C]", "normalised enrichment score": 0.264}
{"Change": "PPFKRRLDFETDH [V3F]", "normalised enrichment score": -0.419}
{"Change": "PPVKRRLDCETDH [F9C]", "normalised enrichment score": 0.0248}
{"Change": "PPVKRRLDFETNH [D12N]", "normalised enrichment score": 0.589}
{"Change": "PPVKRRRDFETDH [L7R]", "normalised enrichment score": 0.119}
{"Change": "PPVKRGLDFETDH [R6G]", "normalised enrichment score": -0.00217}
{"Change": "PPVKKRLDFETDH [R5K]", "normalised enrichment score": 0.0832}
{"Change": "PPVYRRLDFETDH [K4Y]", "normalised enrichment score": -0.00849}
{"Change": "PPAKRRLDFETDH [V3A]", "normalised enrichment score": 0.468}
{"Change": "PPVKRQLDFETDH [R6Q]", "normalised enrichment score": 0.0719}
{"Change": "PPVKRRLYFETDH [D8Y]", "normalised enrichment score": 0.368}
{"Change": "PPVKRRLDAETDH [F9A]", "normalised enrichment score": 0.0447}
{"Change": "PPVKRRLDFETRH [D12R]", "normalised enrichment score": 0.306}
{"Change": "PPVKRILDFETDH [R6I]", "normalised enrichment score": -0.108}
{"note": "Some of these lines once more (block 5):"}
{"Change": "PPVKRRLCFETDH [D8C]", "normalised enrichment score": 0.58}
{"Change": "PPVKRRLDFENDH [T11N]", "normalised enrichment score": 0.879}
{"Change": "PPVKRRLDFETCH [D12C]", "normalised enrichment score": 0.264}
{"Change": "PPFKRRLDFETDH [V3F]", "normalised enrichment score": -0.419}
{"Change": "PPVKRRLDCETDH [F9C]", "normalised enrichment score": 0.0248}
{"Change": "PPVKRRLDFETNH [D12N]", "normalised enrichment score": 0.589}
{"Change": "PPVKRRRDFETDH [L7R]", "normalised enrichment score": 0.119}
{"Change": "PPVKRGLDFETDH [R6G]", "normalised enrichment score": -0.00217}
{"Change": "PPVKKRLDFETDH [R5K]", "normalised enrichment score": 0.0832}
{"Change": "PPVYRRLDFETDH [K4Y]", "normalised enrichment score": -0.00849}
{"Change": "PPAKRRLDFETDH [V3A]", "normalised enrichment score": 0.468}
{"Change": "PPVKRQLDFETDH [R6Q]", "normalised enrichment score": 0.0719}
{"Change": "PPVKRRLYFETDH [D8Y]", "normalised enrichment score": 0.368}
{"Change": "PPVKRRLDAETDH [F9A]", "normalised enrichment score": 0.0447}
